Experimental data collected from several papers.
Numbered parts are unrelated; each lists some results of a single study. Changes are numbered by the printed parent chain.

Set 1
Target: Histone acetyltransferase KAT6A, winged helix 1, GST fusion (KAT6A, Homo sapiens, UniProt Q92794, residues 1-85)
Technique: protein binding microarray
Molecule type: double-stranded DNA, one strand shown
Sample: in vitro
Tested at: not given
Notes: 8-mer, flanks averaged, mean of 2 arrays, mostly near background
Reference: not given
Direction: higher = stronger binding
Construct (chain): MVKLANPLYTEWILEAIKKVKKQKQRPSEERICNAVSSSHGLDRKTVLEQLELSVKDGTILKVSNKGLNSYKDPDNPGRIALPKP
Oligonucleotide	E-score
AATACAAG	-0.181
CCTAGCGA	-0.202
TCCCGGAA	0.138
TGCCGAAA	0.0962
CCATCGTA	-0.143
CTGGCCAC	-0.169
CCAGATCC	-0.198
AAGTGCAA	-0.116
CGTAAGTC	0.032
AGTGGAAG	-0.0152
CCGCTCAA	0.142

Set 2
Target: ABI1, truncated, D143A, DHFR fusion (Arabidopsis thaliana)
Technique: DHFR PCA, deep sequencing
Sample: yeast
Notes: methotrexate growth selection, single substitutions
Added: (+)-ABA 0.39 µM
Reference: wild-type fitted maximum
Direction: higher = stronger binding
Parent: PYL1, truncated, DHFR fusion (Arabidopsis thaliana); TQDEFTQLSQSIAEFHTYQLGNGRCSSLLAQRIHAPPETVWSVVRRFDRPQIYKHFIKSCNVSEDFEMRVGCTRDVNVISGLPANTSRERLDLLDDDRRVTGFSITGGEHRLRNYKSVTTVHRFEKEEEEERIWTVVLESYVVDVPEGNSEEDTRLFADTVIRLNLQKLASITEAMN; partner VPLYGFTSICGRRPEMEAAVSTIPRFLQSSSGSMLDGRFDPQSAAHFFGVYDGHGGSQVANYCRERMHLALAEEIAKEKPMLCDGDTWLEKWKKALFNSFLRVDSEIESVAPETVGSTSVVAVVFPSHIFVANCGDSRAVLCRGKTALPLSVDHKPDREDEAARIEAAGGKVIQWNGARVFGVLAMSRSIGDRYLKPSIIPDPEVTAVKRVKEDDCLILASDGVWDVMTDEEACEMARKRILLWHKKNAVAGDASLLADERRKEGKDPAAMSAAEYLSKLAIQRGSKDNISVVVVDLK
Substitution	relative binding score
E109V	8.19%
E38A	14.1%
R90A	4.58%
V40H	-16.2%
V136T	23.6%
K168Q	33.9%
L112S	-6.12%
L166W	14.2%

Set 3
Target: CCNE2, cyclin fold, Cln2 fusion (human)
Technique: yeast growth competition, sequencing
Sample: yeast
Notes: weak parent motif
Reference: not given
Direction: higher = stronger binding
Parent: ORC1 docking peptide (human); PRARKRLELGNLG; partner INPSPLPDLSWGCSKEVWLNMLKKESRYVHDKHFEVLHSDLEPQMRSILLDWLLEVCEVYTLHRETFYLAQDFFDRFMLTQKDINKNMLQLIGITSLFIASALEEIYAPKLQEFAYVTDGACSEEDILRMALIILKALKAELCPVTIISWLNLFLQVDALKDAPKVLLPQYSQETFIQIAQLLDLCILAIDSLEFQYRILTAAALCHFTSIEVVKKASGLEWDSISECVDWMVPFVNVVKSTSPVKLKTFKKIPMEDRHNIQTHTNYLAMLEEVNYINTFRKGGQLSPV
Substitution	normalised enrichment score
R4Q	0.583
L9K	0.346
A3R	0.3
P1E	0.862
L7W	1.12

Further values, each from its own experiment
Substance	target	test	system	setting	scale	quantity	result
PhoQ, residues 284 288 289 292 302 303 NLSRDF	PhoP, residues 12 14 15 18 19 MHTVL (Escherichia coli, UniProt P23836)	Sort-seq, measured: YFP reporter	E. coli	PhoQ-PhoP variant library, added: 10 µM Mg2+	reference: high Mg2+ state, higher = stronger signaling	fold induction	7.6

For quick reference, copied from above (set 1):
Oligonucleotide	E-score
AAGTGCAA	-0.116
CGTAAGTC	0.032
